Experimental data gathered from unrelated publications.
Numbered parts are unrelated; each lists some results of a single study.

Set 1 — cell line: HEK-293T-ACE2; tested at: concentration not given; relative to: vehicle
SMILES	cell number
NCC[C@H](O)C(=O)N[C@@H]1C[C@H](N)[C@@H](O[C@H]2O[C@H](CN)[C@@H](O)[C@H](O)[C@H]2O)[C@H](O)[C@H]1O[C@H]1O[C@H](CO)[C@@H](O)[C@H](N)[C@H]1O.O=S(=O)(O)O.O=S(=O)(O)O	101%
CC(C)C[C@H](NC(=O)CNC(=O)c1cc(Cl)ccc1Cl)B(O)O	55.6%
C[C@]12CC[C@@H]3c4ccc(O)cc4CC[C@H]3[C@@H]1CC[C@@H]2OC(=O)CCC1CCCC1	107%
Nc1cccc2c1CN(C1CCC(=O)NC1=O)C2=O (stereo not shown)	101%

Set 2 — read-out: enzyme activity; mode: inhibitor; tested at: 20 µM; setting: primary screen
Target: Replicase polyprotein 1ab, main protease (rep, Severe acute respiratory syndrome coronavirus 2, UniProt P0DTD1)
Structure (SMILES)	inhibition
Cc1cc(OI)c(C(C)C)cc1-c1cc(C(C)C)c(OI)cc1C	29%
COc1ccc2nc(S)[nH]c2c1	97.9%
O=[N+]([O-])C(Br)(CO)CO	99.9%
Oc1cc2c(c(Cl)c1O)CCNCC2c1ccccc1 (stereo not shown)	94.5%

Set 3 — read-out: enzyme activity; tested at: 20 µM
Target: Replicase polyprotein 1ab, nsp12 with nsp7/nsp8 (rep, Severe acute respiratory syndrome coronavirus 2, UniProt P0DTD1)
SMILES	inhibition [%]
CC(C)NCC(O)COc1cccc2[nH]ccc12 (stereo not shown)	19.5
CCN(CCO)CCCC(C)Nc1ccnc2cc(Cl)ccc12 (stereo not shown)	1.79
CC(C)c1ccccc1Cc1cc(C(=O)Nc2ccc(S(=O)(=O)c3ccccc3C(C)(C)C)cc2)c(O)c(O)c1O	90.8
C[C@@H]1C[C@H]2[C@@H]3CCC4=CC(=O)C=C[C@]4(C)[C@@]3(F)[C@@H](O)C[C@]2(C)[C@@]1(O)C(=O)CO	18
O=c1c(O)c(-c2ccc(O)cc2O)oc2cc(O)cc(O)c12	104
CC(C)(C)NC(=O)N[C@H](C(=O)N1C[C@H]2[C@@H]([C@H]1C(=O)NC(CC1CCC1)C(=O)C(N)=O)C2(C)C)C(C)(C)C (stereo partly shown)	1.98

Set 4 — technique: RNA Bind-n-Seq; molecule type: RNA; matrix: in vitro; tested at: not given; relative to: input RNA pool; reading: higher = stronger binding
Target: RING finger protein unkempt homolog, zinc fingers 1-6, GST-SBP tag (UNK, Homo sapiens, UniProt Q9C0B0, residues 30-357)
Chain of UniProt Q9C0B0 (30-357, looked up): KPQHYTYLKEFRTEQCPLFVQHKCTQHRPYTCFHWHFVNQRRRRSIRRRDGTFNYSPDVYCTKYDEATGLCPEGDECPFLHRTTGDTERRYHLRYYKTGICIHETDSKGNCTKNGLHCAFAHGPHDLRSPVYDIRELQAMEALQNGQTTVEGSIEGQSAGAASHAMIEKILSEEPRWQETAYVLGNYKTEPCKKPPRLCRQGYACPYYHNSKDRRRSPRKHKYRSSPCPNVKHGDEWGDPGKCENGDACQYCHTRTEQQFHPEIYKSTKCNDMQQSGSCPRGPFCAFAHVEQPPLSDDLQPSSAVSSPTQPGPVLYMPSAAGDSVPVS
Setting: RNA with constant flanks, human-mouse chimeric sites, ends assumed
Constant ends, left off below: GGGAGUUCUACAGUCCGACGAUC … CAACAGAGGAUUGAGCAUCA
Strand	bound/input enrichment [ratio]
CUCGGCACUGGUACCCUUUACAUCGCUGAGAGCCGCCUGUCCUGGUUAGAUGGUUCGGGAUUAGGAUUCUCACUGGAAUACCCCACCAUUAGUUUACAUGCGGUGUCCAGGGAUCCAAAC	0.645
CUGAGGAUACCACUGAAGAGACCUUAAAAGAAUCAUUUGAGGGCUCUGUUCGUGCAAGAAUAGUCACCUGACCGGGAACUGGUUCUUUCCAAAGGGUUGGUUUUGUAGACUUUAAUAGUG	0.613
GGCCUGGGACCGUCCUGGGCUAGUACAAUAGCGGCAGGUGGAGGCUCGAGAGGAAAGUUUGUUAGUGGAGGCAGUGGUAGAGGCCGUCAUGUACGGUCCUUUACUCGUAAAAAUCCUUCU	0.284
CAGUCCCCGUGUCCCAGUGCAGGACGAUGUGAACAAAAACUCAAAGCGGACCCUCUAUUGUAGUUCUUGAUUCUCGAAAUGUGCUAUUGUUUUUAAAAAAAAAGGAAUUUUUUUUAAAGA	0.155
AUUGUUGAAGCGAAUCCACUUUUAGAAGCAUUUGGAAAUGCAAAGACUGUUCGCAACAAUAAUAGCAGUCGAUUUGGAAAAUUUGUAGAAAUUCAUUUUAAUGAAAAGAGUUCGGUUGUU	0.61
GCUCUUGGCAAUGUAAUCAGCGCCUUGGGGGACAAGAGCAAGAGAGCCACCCAUGUCCCUUACAGAGACUCUAAGCUGACAAGACUCCUACAGGAUUCCCUUGGGGGUAACAGCCAAACC	0.113
GUGACAGGUGUUAAGAUUUCCCCUCAGCAAAGAAGUGCAGUAGUCACCAUAAUUCCAUCUGUGGUGAGUGCCAGUCAGAUUGUGGAGCUGGUCCCAGACCUCAGUUUAGAUACUGGGACU	0.412
CCCUCCCGGGCCACCCAACCCCUCCCGGCUCCCCGCCGAGAUCCAGGUUUCUUCUUAUUUCAUAGCAAAUAAGAAAAAUGUUCUACGCACAUUUUGUCCUCAGUAAAAGAGGGCCUCUGG	0.667

A few entries again (set 2):
Structure (SMILES)	inhibition
COc1ccc2nc(S)[nH]c2c1	97.9%
O=[N+]([O-])C(Br)(CO)CO	99.9%
